Experimental data pooled from the literature.
Protocols differ between the studies behind these lines. Numbers after ± are the reported error.

| SMILES | target or system | assay | test system | setting | scale | endpoint | result |
| --- | --- | --- | --- | --- | --- | --- | --- |
| COC1CN([C@H]2CC[C@H]([C@@]3(C)Oc4c(Cl)cc(C(=O)NCc5c(SC)cc(C)[nH]c5=O)c(C)c4O3)CC2)C1 | – | RNA-seq, refers to: MARCHF3 | human, whole blood | dose not given, 24 h | baseline: pretreatment baseline | log2 fold change | 1.48 |
| CC[n+]1cccc2cc(/C=N/NC(=O)c3cccc(C(=O)N/N=C/c4ccc5c(ccc[n+]5CC)c4)c3)ccc21 | myc22 MYC G4-DNA parallel | FRET melting | – | 1 µM, K1 buffer, DNA 0.2 µM, with: ds26 10 µM | – | ΔTm | 4.5 ± 0.2 °C |
| Nc1ncc(-c2cc(-c3cnn(CC(F)(F)F)c3)ncc2F)nc1C(=O)NC1CNCC(F)C1 (centres unmarked) | EPHA1 | KINOMEscan | – | 1 µM | baseline: DMSO control | remaining binding | 88% |
| CNS(=O)(=O)Nc1nccc(Cc2c(C)c3ccc(Oc4ncccc4F)cc3oc2=O)c1F | LN-18 | cell viability | – | 7 days | – | IC50 | > 1000 nM |
| Cc1ncsc1-c1ccc(C(C)NC(=O)C2CC(O)CN2C(=O)C(NC(=O)CCCCCCCCCCN2CCCC(Nc3ncc(Cl)c(Nc4ccccc4S(=O)(=O)C(C)C)n3)C2)C(C)(C)C)cc1 (centres unmarked) | 22Rv1 | RNA-seq, refers to: TWNK mRNA | – | concentration not given | baseline: DMSO | log2 fold change | -1.03 |
| C=CC(=O)Nc1cccc(Cn2ncc3cnc(Nc4cnn(CCOC)c4)nc32)c1 | PIK3C2B human | binding, KINOMEscan | – | 100 nM | lower = stronger binding | percent of control | 79% |
| CN1CCCNC(=O)c2cccc(c2)C(=O)NCCCN(C)CCCNc2cccc3c2C(=O)c2cccc(c2C3=O)NCCC1 | SAS | RNA-Seq, refers to: CEP19 mRNA | – | 1 µM, 6 h | baseline: untreated cells | log2 fold change | 1.53 |
| O=C(N/N=C/c1ccc(C[n+]2ccccc2)cc1)c1cncc(C(=O)N/N=C/c2ccc(C[n+]3ccccc3)cc2)n1 | myc22 MYC G4-DNA parallel | FRET melting | – | 1 µM, K1 buffer, DNA 0.2 µM | – | ΔTm | 10.1 ± 0.2 °C |

A few entries again:
| SMILES | target or system | assay | test system | setting | scale | endpoint | result |
| --- | --- | --- | --- | --- | --- | --- | --- |
| CC[n+]1cccc2cc(/C=N/NC(=O)c3cccc(C(=O)N/N=C/c4ccc5c(ccc[n+]5CC)c4)c3)ccc21 | myc22 MYC G4-DNA parallel | FRET melting | – | 1 µM, K1 buffer, DNA 0.2 µM, with: ds26 10 µM | – | ΔTm | 4.5 ± 0.2 °C |
